Results gathered from unrelated publications.
TDP1: Tyrosyl-DNA phosphodiesterase 1 (TDP1, Homo sapiens, UniProt Q9NUW8)
Chain of UniProt Q9NUW8 (whole entry, looked up): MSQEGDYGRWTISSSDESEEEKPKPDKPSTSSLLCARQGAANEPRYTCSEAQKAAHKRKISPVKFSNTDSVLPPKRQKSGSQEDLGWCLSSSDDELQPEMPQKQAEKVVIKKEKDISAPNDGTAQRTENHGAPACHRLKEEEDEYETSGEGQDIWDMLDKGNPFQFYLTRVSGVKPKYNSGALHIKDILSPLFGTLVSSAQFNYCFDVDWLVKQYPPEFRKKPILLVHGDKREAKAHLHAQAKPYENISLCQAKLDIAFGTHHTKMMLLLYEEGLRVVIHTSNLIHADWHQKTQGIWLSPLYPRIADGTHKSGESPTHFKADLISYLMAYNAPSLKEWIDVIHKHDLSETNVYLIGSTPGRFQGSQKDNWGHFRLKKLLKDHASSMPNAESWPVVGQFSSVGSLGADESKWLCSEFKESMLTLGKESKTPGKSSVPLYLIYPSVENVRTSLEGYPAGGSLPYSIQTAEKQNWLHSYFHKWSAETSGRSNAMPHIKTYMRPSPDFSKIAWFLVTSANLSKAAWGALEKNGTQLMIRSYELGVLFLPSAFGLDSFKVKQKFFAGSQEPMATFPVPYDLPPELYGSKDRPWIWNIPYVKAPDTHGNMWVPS

For `CC1(C)C(/C=C/C2=C(Cl)C(=C/C=C3/N(CCCCCC(=O)O)c4ccccc4C3(C)C)/C[N+](C)(C)C2)=[N+](CCCCCC(=O)O)c2ccccc21`, the emission maximum was 765 nm (water).
`O=C(O)c1ccc(Nc2c(-c3ccccc3)nc3ccc(CON=Cc4nc(-c5ccccc5)[nH]c4Cl)cn23)cc1` has an inhibition of 51.5% (TDP1; enzyme activity, inhibitor; 100 µM, unpurified compound).
`O=c1cc(/C=C/c2ccc(N(c3ccccc3)c3ccccc3)cc2)oc(/C=C/c2ccc(N(c3ccccc3)c3ccccc3)cc2)c1` gave an emission maximum of 565 nm (acetonitrile/water 1:19 v/v; 10 µM, 298 K, aggregate nanoparticle suspension).
`COC(=O)c1ccccc1-c1c2ccc(=O)cc-2oc2c1ccc1cccc(N)c12` gave an emission maximum of 770 nm (HCl 12.5 mM; pH 1.9, 10% DMSO).
The emission maximum of `O=c1cc(/C=C/c2ccc(N3CCOCC3)cc2)oc(/C=C/c2ccc(N3CCOCC3)cc2)c1` is reported as 557 nm (acetonitrile; 10 µM, 298 K).
With `CCCCN1C(=O)c2cccc3c(NCCCCCCCCCCN4CCOCC4)ccc(c23)C1=O` the emission maximum was 524 nm (acetonitrile).
The emission maximum of `O=c1cc(/C=C/c2ccc(N3CCCC3)cc2)oc(/C=C/c2ccc(N3CCCC3)cc2)c1` is reported as 599 nm (acetonitrile/water 1:19 v/v; 10 µM, 298 K, aggregate nanoparticle suspension).
For `CCCCN1C(=O)c2cccc3c(NCCCCCN4CCOCC4)ccc(c23)C1=O`, the emission maximum was 533 nm (DMSO).
With `O=C(O)c1ccc(Nc2c(-c3ccccc3)nc3ccc(CON=CC4=C5NC(=O)c6ccccc6N5CC4)cn23)cc1` the inhibition was 29.7% (TDP1; enzyme activity, inhibitor; 100 µM, unpurified compound).
`CC1(C)C(=CC=C2CCCC(C=CC3=[N+](CCC[N+](C)(C)C)c4ccc(S(=O)(=O)O)cc4C3(C)C)=C2SCCOCCOCCC(=O)O)N(CCC[N+](C)(C)C)c2ccc(S(=O)(=O)O)cc21` — result for “emission maximum wavelength”: 807 nm (PBS; pH 7.4).
Under “emission maximum wavelength”, `COc1ccc2nc(-c3ccc(N(C)C)cc3)sc2c1` is recorded as 432 nm (PBS; free dye).

Some of these lines once more:
The emission maximum of `O=c1cc(/C=C/c2ccc(N3CCCC3)cc2)oc(/C=C/c2ccc(N3CCCC3)cc2)c1` is reported as 599 nm (acetonitrile/water 1:19 v/v; 10 µM, 298 K, aggregate nanoparticle suspension).
